Published values from different studies.
A part holds a random share of what one study measured.
UniProt Q15139, sequence (whole entry, looked up): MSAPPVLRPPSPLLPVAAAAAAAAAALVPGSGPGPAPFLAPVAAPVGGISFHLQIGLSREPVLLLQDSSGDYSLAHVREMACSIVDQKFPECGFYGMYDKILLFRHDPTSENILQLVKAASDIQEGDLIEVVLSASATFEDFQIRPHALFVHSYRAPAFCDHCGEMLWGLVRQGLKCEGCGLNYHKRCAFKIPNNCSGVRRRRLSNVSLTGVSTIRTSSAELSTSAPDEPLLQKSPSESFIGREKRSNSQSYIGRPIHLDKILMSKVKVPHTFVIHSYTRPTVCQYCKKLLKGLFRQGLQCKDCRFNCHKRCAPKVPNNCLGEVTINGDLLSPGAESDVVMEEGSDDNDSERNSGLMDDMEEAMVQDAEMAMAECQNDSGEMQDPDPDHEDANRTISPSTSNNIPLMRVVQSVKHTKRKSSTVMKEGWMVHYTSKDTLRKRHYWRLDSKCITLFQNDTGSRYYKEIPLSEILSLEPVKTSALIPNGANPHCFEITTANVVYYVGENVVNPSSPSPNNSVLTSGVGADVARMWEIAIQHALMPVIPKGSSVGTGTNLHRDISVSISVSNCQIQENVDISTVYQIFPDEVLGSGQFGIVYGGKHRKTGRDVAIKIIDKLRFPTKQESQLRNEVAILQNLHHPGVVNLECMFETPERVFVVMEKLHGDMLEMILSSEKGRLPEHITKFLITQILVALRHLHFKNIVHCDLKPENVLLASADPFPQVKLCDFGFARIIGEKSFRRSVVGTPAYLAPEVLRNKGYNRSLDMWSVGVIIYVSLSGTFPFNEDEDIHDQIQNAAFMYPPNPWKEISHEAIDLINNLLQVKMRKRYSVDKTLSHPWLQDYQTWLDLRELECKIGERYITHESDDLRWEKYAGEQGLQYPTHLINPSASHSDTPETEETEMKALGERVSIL
UniProt P23458, sequence (whole entry, looked up): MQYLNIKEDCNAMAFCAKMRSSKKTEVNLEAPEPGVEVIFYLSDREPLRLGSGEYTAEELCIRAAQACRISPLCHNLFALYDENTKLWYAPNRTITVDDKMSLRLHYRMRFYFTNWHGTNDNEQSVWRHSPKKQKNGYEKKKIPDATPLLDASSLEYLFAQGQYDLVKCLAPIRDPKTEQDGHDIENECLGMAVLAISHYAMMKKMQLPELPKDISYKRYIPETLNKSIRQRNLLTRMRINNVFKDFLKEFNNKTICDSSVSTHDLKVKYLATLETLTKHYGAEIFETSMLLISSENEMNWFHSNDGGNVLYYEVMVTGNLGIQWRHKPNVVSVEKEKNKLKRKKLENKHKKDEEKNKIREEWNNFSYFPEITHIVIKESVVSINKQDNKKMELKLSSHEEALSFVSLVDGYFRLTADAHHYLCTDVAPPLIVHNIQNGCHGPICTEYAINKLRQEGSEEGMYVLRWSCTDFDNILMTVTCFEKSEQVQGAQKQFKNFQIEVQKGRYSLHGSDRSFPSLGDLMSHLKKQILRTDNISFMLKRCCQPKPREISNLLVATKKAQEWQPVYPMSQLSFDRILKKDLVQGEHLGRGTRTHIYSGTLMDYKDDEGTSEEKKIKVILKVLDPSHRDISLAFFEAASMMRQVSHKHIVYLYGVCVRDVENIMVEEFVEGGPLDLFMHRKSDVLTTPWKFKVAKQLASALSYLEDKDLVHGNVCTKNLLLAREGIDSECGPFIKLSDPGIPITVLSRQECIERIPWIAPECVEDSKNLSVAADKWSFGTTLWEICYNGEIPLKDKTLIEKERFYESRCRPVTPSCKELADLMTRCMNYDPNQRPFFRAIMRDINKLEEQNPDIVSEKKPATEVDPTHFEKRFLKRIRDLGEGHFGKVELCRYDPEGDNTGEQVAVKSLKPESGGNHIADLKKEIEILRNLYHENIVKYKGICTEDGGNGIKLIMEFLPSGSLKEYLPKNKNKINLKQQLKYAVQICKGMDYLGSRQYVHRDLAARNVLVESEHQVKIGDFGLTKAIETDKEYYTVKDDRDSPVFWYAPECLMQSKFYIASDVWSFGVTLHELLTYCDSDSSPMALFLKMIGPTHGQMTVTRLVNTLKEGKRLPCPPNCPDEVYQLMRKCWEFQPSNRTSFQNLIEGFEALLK
UniProt Q00537, sequence (whole entry, looked up): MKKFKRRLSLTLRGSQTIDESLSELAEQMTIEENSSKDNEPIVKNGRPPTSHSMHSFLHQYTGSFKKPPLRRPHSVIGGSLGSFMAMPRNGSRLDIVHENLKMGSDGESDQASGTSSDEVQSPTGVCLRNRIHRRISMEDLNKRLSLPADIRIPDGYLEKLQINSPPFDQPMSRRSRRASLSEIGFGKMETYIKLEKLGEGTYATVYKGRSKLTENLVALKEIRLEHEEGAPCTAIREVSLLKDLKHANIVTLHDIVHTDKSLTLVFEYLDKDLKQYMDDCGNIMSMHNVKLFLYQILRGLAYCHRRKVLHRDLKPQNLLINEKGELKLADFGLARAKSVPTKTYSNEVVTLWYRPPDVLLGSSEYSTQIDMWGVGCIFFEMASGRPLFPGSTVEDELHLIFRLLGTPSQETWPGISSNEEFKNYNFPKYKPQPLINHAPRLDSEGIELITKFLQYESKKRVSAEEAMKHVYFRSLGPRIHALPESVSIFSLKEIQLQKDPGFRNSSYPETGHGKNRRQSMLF
UniProt Q9Y6R4, sequence (whole entry, looked up): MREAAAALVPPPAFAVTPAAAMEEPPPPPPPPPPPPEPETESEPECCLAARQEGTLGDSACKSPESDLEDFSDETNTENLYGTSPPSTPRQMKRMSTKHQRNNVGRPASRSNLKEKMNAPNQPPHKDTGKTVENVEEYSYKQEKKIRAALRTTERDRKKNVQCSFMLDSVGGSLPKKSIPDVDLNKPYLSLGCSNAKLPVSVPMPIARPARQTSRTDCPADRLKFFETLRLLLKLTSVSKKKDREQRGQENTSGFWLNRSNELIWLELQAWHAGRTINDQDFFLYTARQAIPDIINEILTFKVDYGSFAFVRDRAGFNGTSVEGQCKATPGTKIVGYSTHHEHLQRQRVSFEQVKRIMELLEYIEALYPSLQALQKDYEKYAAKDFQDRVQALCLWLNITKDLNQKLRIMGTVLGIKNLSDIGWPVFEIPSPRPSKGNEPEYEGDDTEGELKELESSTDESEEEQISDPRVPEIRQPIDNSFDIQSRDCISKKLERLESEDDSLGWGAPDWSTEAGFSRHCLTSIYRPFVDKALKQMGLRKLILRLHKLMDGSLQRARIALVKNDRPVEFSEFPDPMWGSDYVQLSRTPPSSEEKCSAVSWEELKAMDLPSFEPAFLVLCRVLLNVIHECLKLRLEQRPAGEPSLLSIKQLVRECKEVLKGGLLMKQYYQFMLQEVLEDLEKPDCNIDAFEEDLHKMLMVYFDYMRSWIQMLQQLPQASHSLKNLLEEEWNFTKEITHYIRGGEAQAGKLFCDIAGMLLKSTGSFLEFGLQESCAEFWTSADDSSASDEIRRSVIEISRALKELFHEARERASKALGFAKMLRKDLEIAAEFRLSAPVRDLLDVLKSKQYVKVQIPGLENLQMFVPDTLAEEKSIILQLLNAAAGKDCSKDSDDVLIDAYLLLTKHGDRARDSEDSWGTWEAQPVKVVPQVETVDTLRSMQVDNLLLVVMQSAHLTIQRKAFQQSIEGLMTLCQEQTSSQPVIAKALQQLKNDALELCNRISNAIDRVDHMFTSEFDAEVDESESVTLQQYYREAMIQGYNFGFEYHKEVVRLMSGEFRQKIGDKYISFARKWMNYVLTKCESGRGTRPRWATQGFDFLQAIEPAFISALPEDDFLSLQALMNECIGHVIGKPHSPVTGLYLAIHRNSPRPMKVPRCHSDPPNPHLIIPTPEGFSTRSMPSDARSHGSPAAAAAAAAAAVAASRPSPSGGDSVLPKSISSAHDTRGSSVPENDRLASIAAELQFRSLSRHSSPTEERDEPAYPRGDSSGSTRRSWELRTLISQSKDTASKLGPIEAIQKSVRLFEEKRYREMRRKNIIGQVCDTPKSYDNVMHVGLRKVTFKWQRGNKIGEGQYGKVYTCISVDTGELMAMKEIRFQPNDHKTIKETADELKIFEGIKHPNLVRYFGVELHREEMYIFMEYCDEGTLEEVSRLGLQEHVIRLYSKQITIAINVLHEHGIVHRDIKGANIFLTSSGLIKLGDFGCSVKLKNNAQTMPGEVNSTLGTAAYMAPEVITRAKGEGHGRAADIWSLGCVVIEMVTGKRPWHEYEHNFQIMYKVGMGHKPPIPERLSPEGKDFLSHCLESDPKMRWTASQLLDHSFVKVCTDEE

Sample 1
Organism: Plasmodium berghei
Action: inhibitor
Cell line: Huh-7
Strain: GFP-expressing, liver stage
Concentration: 10 µM
Time: 24 h
Relative to: untreated control
SMILES	infection rate
CCN(CC)CCNC(=O)c1cc(S(C)(=O)=O)ccc1OC	83%
C#CCN(C)Cc1ccccc1	98.5%
NC(=O)N/N=C/c1ccc([N+](=O)[O-])o1	55.8%
CCCCCCCCCCC[C@@H](C[C@@H]1OC(=O)[C@H]1CCCCCC)OC(=O)[C@H](CC(C)C)NC=O	43.6%
COC(=O)[C@H]1[C@H]2C[C@@H]3c4[nH]c5cc(OC)ccc5c4CCN3C[C@H]2C[C@@H](OC(=O)c2cc(OC)c(OC)c(OC)c2)[C@@H]1OC	19.6%
O=C1CCC(N2C(=O)c3ccccc3C2=O)C(=O)N1 (centres unmarked)	90.5%
Nc1ccc(/N=N/c2ccccc2)c(N)n1	274%
CC(=O)OCC(=O)[C@@]1(O)[C@H](OC(C)=O)C[C@H]2[C@@H]3CCC4=CC(=O)C=C[C@]4(C)[C@@]3(F)[C@@H](O)C[C@@]21C	106%
CC[C@H]1OC(=O)[C@H](C)[C@@H](O[C@H]2C[C@@](C)(OC)[C@@H](O)[C@H](C)O2)[C@H](C)[C@@H](O[C@@H]2O[C@H](C)C[C@H](N(C)C)[C@H]2O)[C@](C)(O)C[C@@H](C)/C(=N\OCOCCOC)[C@H](C)[C@@H](O)[C@]1(C)O	103%

Sample 2
Target: Tyrosine-protein kinase ZAP-70 (ZAP70, Homo sapiens, UniProt P43403)
UniProt P43403, sequence (whole entry, looked up): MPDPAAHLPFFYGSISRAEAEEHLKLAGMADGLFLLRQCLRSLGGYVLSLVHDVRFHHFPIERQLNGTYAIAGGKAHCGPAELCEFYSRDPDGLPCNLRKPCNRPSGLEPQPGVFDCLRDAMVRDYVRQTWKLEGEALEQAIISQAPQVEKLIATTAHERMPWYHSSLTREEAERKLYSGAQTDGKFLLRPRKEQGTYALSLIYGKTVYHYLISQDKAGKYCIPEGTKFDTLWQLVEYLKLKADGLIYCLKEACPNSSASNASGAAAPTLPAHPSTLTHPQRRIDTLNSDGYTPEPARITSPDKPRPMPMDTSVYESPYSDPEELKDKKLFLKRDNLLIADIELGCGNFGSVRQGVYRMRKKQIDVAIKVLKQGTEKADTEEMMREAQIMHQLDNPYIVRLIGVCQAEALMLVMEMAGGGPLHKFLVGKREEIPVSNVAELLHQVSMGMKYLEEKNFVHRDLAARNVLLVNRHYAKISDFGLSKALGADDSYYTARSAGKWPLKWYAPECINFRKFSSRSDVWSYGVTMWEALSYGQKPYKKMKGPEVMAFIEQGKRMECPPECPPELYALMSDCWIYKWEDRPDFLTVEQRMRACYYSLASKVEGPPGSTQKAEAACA
Effect on: enzyme activity
Action: inhibitor
Concentration: 0.5 µM
Relative to: control
Compound	remaining activity [%]
COc1ccc(-c2cnc3c(-c4ccsc4)cnn3c2)cc1	93.7
CCOc1cc2ncnc(Nc3cccc(Br)c3)c2cc1OCC	105
O=C(Nc1ccc(Cl)cc1)c1ccccc1NCc1ccncc1	103
Nc1[nH]nc2nnc(-c3c(-c4ccccc4)nn4ccccc34)cc12	90.1
Cn1cc(/C=C2\C(=O)Nc3ccc(S(N)(=O)=O)cc32)c2ccccc21	102
Cc1ccc(NC(=O)c2ccc(CN3CCN(C)CC3)cc2)cc1Nc1nccc(-c2cccnc2)n1	101
CC(C)[C@H](CO)Nc1nc(Nc2cccc(Cl)c2)c2ncn(C(C)C)c2n1	99.7
CC(C)c1nn(-c2c(Cl)cccc2Cl)c2nc(Cc3ccc(OCCO)cc3)[nH]c(=O)c12	103
CCN1/C(=C/C(C)=O)Sc2ccc(OC)cc21	103
CCC(=O)Nc1ccc2ncnc(Nc3cccc(Br)c3)c2c1	113
COc1cc2ncc(-c3ccccc3)nc2cc1OC	98.6
COc1cc2ncnc(Nc3ccc(OCc4ccccc4)cc3)c2cc1OC	87.6
CS(=O)(=O)CCNCc1ccc(-c2ccc3ncnc(Nc4ccc(OCc5cccc(F)c5)c(Cl)c4)c3c2)o1	92.5

Sample 3
Compound: COc1ccc2c(c1)O[C@@H](c1ccc(OC)c(OC)c1)C[C@H]2NC(=O)C1(c2ccc3c(c2)OC(F)(F)O3)CC1
Effect on: cell-free assay
Technique: competition with immobilised ligand
Concentration: 1 µM
target	remaining binding
Mitogen-activated protein kinase kinase kinase 20 (MAP3K20, Homo sapiens, UniProt Q9NYL2)	97%
Mitogen-activated protein kinase kinase kinase 4 (MAP3K4, Homo sapiens, UniProt Q9Y6R4)	95%
Tyrosine-protein kinase JAK1, JH1 (JAK1, Homo sapiens, UniProt P23458)	100%
Serine/threonine-protein kinase D1 (PRKD1, Homo sapiens, UniProt Q15139)	95%
Bone morphogenetic protein receptor type-2 (BMPR2, Homo sapiens, UniProt Q13873)	68%
Casein kinase II subunit alpha' (CSNK2A2, Homo sapiens, UniProt P19784)	87%
Cyclin-dependent kinase 17 (CDK17, Homo sapiens, UniProt Q00537)	100%
Serine/threonine-protein kinase PLK3 (PLK3, Homo sapiens, UniProt Q9H4B4)	92%
NUAK family SNF1-like kinase 2 (NUAK2, Homo sapiens, UniProt Q9H093)	76%

Sample 4
Host: human
Sample: microsomes or S9
Concentration: 2 µM
Time: 0.5 h
Structure (SMILES)	remaining compound
CC(C)Cn1cc(NC(=O)NC2CCN(Cc3ccccc3)CC2)c2ccccc2c1=O	48%
COCCOc1cc(=O)n2c(c1C(=O)NC1CCCCC1)CCOCC2	64%
CCOC(=O)c1cc(C(C)C)sc1NC(=O)c1cc(Cl)ccc1OC	> 99%
CC(C)c1nc2cc(N3CC(=O)C(c4nc(-c5ccccc5)cs4)=C3N)ccc2[nH]1	91.6%
Cc1cc(NC(=O)C(O)c2cc(Cl)cc(Cl)c2)c[nH]c1=O (centres unmarked)	80.9%
CCOc1nc(Nc2nc(-c3ccccc3)cs2)nc(OCC)n1	79.3%
CN(C)CCCn1c(-c2ccccc2)c(-c2ccccc2)c2c1ncn1nc(-c3ccncc3)nc21	46.6%
COC(=O)c1c(NS(C)(=O)=O)sc2c1CCCC2	4.25%
CSc1cc(=O)oc2c(Cl)ccc(Cl)c12	63.6%
COC(=O)C1(C(=O)OC)C[C@@H](c2ccccc2)c2ccc(N(C)C)cc2[C@@H]1CC(=O)c1ccccc1	1.51%
COc1ccc(-n2ccc3cc(NC(=O)N4CCCCC4)ccc32)cc1Cl	62.9%
CCn1nccc1-c1cc(C(=O)O)c2ccc(Cl)c(C)c2n1	94.4%
CC(C)C[C@@H]1NC(=O)[C@H](Cc2nc(Br)[nH]c2Br)NC1=O	65.2%
